# Measurements collected from several papers.
# Compare with care: the assays were run in different laboratories. Several values in a cell are separate wells, animals, samples, runs or records. ± marks the error that the study gave.
Structure (SMILES),target or system,assay,test system,setting,how to read,quantity,result
C[N+]1=C2C(c3ccccc3)=[N+]([O-])c3ccccc3N2CCC1,Bacteroides ovatus,,ATCC 84834,,,MIC,4 µg/mL
CN(C)CCNC(=O)/C=C/C(Cc1ccccc1)Nc1ccnc2cc(Cl)ccc12 (centres unmarked),Plasmodium berghei,,"NAT atovaquone-resistant, ICR mouse infected","10 mg/kg, 0 days post infection before treatment",,body weight,27.7 ± 1.28 g
CCn1c2ccccc2c2cc(/C=N/NC(=O)Cn3ccc(=O)c4ccccc43)ccc21,Alternaria solani,microbial growth,,50 µg/mL,,inhibition,46.2%
CC[C@H](C)[C@H](NC(=O)[C@H](CCCCN)NC(=O)[C@H](CCCCN)NC(=O)[C@H](CC(C)C)NC(=O)[C@H](CCCCN)NC(=O)[C@H](CCC(=O)O)NC(=O)[C@H](CCCCN)NC(=O)[C@@H](NC(=O)[C@H](CCCCN)NC(=O)[C@H](CC(N)=O)NC(=O)[C@H](CCCNC(=N)N)NC(=O)[C@H](Cc1ccccc1)NC(=O)[C@H](CCCCN)NC(=O)[C@H](CCCNC(=N)N)NC(=O)[C@H](CC(C)C)NC(=O)[C@H](CCCNC(=N)N)NC(=O)[C@H](CCCCN)NC(=O)[C@H](CCCNC(=N)N)NC(=O)[C@H](CC(C)C)NC(=O)[C@@H](N)CC(C)C)[C@@H](C)CC)C(=O)NCC(=O)N[C@@H](CCC(N)=O)C(=O)N[C@@H](CCCCN)C(=O)N[C@H](C(=O)N[C@@H](CCC(N)=O)C(=O)NCC(=O)N[C@@H](Cc1ccccc1)C(=O)N[C@H](C(=O)N1CCC[C@H]1C(=O)N[C@@H](CCCCN)C(=O)N[C@@H](CC(C)C)C(=O)N[C@H](C(=O)N1CCC[C@H]1C(=O)N[C@@H](CCCNC(=N)N)C(=O)N[C@H](C(=O)N[C@@H](CCC(=O)O)C(=O)N[C@@H](CO)C(=O)O)[C@@H](C)O)C(C)C)C(C)C)[C@@H](C)CC,Salmonella,inhibition zone,DZ.3G,"LB agar, overnight",,lethal concentration,3.7 µM
CCCCCCCCCCCCCC(=O)N[C@@H](CC(C)C)C(=O)N[C@@H](CCCCN)C(=O)N[C@@H](CCCCN)C(N)=O,Staphylococcus epidermidis and Staphylococcus aureus,,clinical strains,,,MIC range,1.56 to 3.1 µM
CON(C(=O)c1cn(C)nc1C(F)F)C(C)Cc1c(Cl)cc(Cl)cc1Cl (centres unmarked),Alternaria solani,,,1.56 µg/mL,,inhibition,82.7%
CN[C@@H]1[C@H](O)[C@H](NC)[C@H]2O[C@]3(O)[C@H](O[C@@H]2[C@H]1O)O[C@H](C)C[C@@]3(O)CNCc1ccc(OC(F)(F)F)cc1,Haemophilus influenzae,,ATCC 49247,40 µg per disc,,inhibition zone diameter,19 mm and 16 mm
CC[C@H](C)[C@H](NC(=O)[C@H](CCCCN)NC(=O)[C@H](CCCCN)NC(=O)[C@H](CC(C)C)NC(=O)[C@H](CCCCN)NC(=O)[C@H](CCC(=O)O)NC(=O)[C@H](CCCCN)NC(=O)[C@@H](NC(=O)[C@H](CCCCN)NC(=O)[C@H](CC(N)=O)NC(=O)[C@H](CCCNC(=N)N)NC(=O)[C@H](Cc1ccccc1)NC(=O)[C@H](CCCCN)NC(=O)[C@H](CCCNC(=N)N)NC(=O)[C@H](CC(C)C)NC(=O)[C@H](CCCNC(=N)N)NC(=O)[C@H](CCCCN)NC(=O)[C@H](CCCNC(=N)N)NC(=O)[C@H](CC(C)C)NC(=O)[C@@H](N)CCCNC(=N)N)[C@@H](C)CC)C(=O)NCC(=O)N[C@@H](CCC(N)=O)C(=O)N[C@@H](CCCCN)C(=O)N[C@H](C(=O)N[C@@H](CCC(N)=O)C(=O)NCC(=O)N[C@@H](Cc1ccccc1)C(=O)N[C@H](C(=O)N1CCC[C@H]1C(=O)N[C@@H](CCCCN)C(=O)N[C@@H](CC(C)C)C(=O)N[C@@H](CCC(N)=O)C(=O)N1CCC[C@H]1C(=O)N[C@@H](CO)C(=O)N[C@@H](CCCCN)C(=O)N[C@@H](CCC(N)=O)C(=O)N[C@@H](CO)C(=O)O)C(C)C)[C@@H](C)CC,Bacillus subtilis,inhibition zone,CGMCC 1.243,,,lethal concentration,2.36 µM
Cc1ccc(COP(=O)(O)Oc2c3c(c(OP(=O)(O)OCc4ccc(C)cc4)c4c2C2CC4c4cc5c(cc42)C2CC5c4ccccc42)C2CC3c3cc4c(cc32)C2CC4c3ccccc32)cc1,measles virus,"viral infection, flow cytometry","A549, vaccine strain GFP","2 days, virus pre-incubated 30 min 37 °C",,IC50,2100 nM
O=C1C=C(N(Cc2ccc(Cl)nc2)CC(F)F)CO1,Myzus persicae,leaf-dip bioassay,,"72 h, adults",relative to: LC50 over susceptible strain,resistance ratio,2
COc1ccc(N2C(=O)C=CC2=O)cc1,Candida albicans,"qRT-PCR, item: CDC35",,"1 µg/mL, 12 h",relative to: untreated,mRNA level,0.44 fold
CNC(=O)CNc1cnc2ccc(-c3ccc(OC)c(OC)c3)cc2n1,Cryptosporidium parvum,cytopathic effect,HCT-8,concentration not given,,antiparasitic activity,inactive
CC[C@H](C)[C@H](NC(=O)[C@H](CCCCN)NC(=O)[C@H](CCCCN)NC(=O)[C@H](CC(C)C)NC(=O)[C@H](CCCCN)NC(=O)[C@H](CCC(=O)O)NC(=O)[C@H](CCCCN)NC(=O)[C@@H](NC(=O)[C@H](CCCCN)NC(=O)[C@H](CC(N)=O)NC(=O)[C@H](CCCNC(=N)N)NC(=O)[C@H](Cc1ccccc1)NC(=O)[C@H](CCCCN)NC(=O)[C@H](CCCNC(=N)N)NC(=O)[C@H](CC(C)C)NC(=O)[C@H](CCCNC(=N)N)NC(=O)[C@H](CCCCN)NC(=O)[C@H](CCCNC(=N)N)NC(=O)[C@@H](N)CC(C)C)[C@@H](C)CC)C(=O)NCC(=O)N[C@@H](CCC(N)=O)C(=O)N[C@@H](CCCCN)C(=O)N[C@H](C(=O)N[C@@H](CCC(N)=O)C(=O)NCC(=O)N[C@@H](Cc1ccccc1)C(=O)N[C@H](C(=O)N1CCC[C@H]1C(=O)N[C@@H](CCCCN)C(=O)N[C@@H](CC(C)C)C(=O)O)C(C)C)[C@@H](C)CC,Streptomyces griseus,inhibition zone,NBRC 13350,"37 °C, LB agar, 154 mM NaCl",,lethal concentration,8.84 µM
CC[C@@H](C)[C@@H](NC(=O)[C@@H](C)NC(=O)[C@@H](CCCCN)NC(=O)[C@@H](CC(C)C)NC(=O)[C@@H](C)NC(=O)[C@H](NC(=O)[C@@H](Cc1c[nH]cn1)NC(=O)[C@@H](CC(C)C)NC(=O)[C@H](NC(=O)[C@H](NC(=O)[C@@H](CCCCN)NC(=O)[C@@H](CCCCN)NC(=O)[C@@H](C)NC(=O)[C@@H](CO)NC(=O)[C@@H](CCCCN)NC(=O)[C@@H](Cc1ccccc1)NC(=O)[C@H](NC(=O)[C@@H](CCCCN)NC(=O)[C@@H](CC(C)C)NC(=O)[C@@H](Cc1ccccc1)NC(=O)[C@@H](CO)NC(=O)[C@@H](CCCCN)NC(=O)[C@@H](Cc1c[nH]c2ccccc12)NC(=O)[C@@H](CCCCN)NC(C)=O)[C@H](C)O)[C@H](C)O)C(C)C)[C@H](C)O)C(=O)N[C@H](CO)C(=O)N[C@H](CO)C(N)=O,Aspergillus nidulans,,AZN 2867,"48 h, 30 °C",,MIC50,9.4 µg/mL
O=C(NCc1ccc(F)cc1)c1nc(NCCO)c2cccnc2c1O,Human betaherpesvirus 5,"viral replication, inhibitor",HFF,10 µM,,inhibition,20%
CN[C@](C)(C[18F])C(=O)O,DU-145 tumour model,,"host not given, liver","15 min, tumour-bearing",,tracer uptake,6.2 %ID/g
CC(=O)N[C@H](CCCCN)C(=O)N[C@H](CC(C)C)C(=O)N[C@H](CCCCN)C(=O)N[C@H](CO)C(=O)N[C@H](CC(C)C)C(=O)N[C@H](CC(C)C)C(=O)N[C@H](CCCCN)C(=O)N[C@@H](C(=O)N[C@H](CC(C)C)C(=O)N[C@H](CO)C(=O)N[C@H](CCCCN)C(=O)N[C@H](C)C(=O)N[C@H](CCCCN)C(=O)N[C@H](CCCCN)C(=O)N[C@H](CCCCN)C(=O)N[C@H](CCCCN)C(=O)N[C@H](CC(C)C)C(=O)N[C@H](CCCCN)C(=O)N[C@@H](C(=O)N[C@H](CC(C)C)C(=O)N[C@H](CC(C)C)C(=O)N[C@H](CCCCN)C(=O)N[C@H](C)C(=O)N[C@H](CC(C)C)C(=O)N[C@H](CO)C(=O)N[C@H](CCCCN)C(N)=O)[C@H](C)O)[C@H](C)O,Acinetobacter baumannii,,11 isolates,,relative to: HC50 over geometric mean MIC,therapeutic index,3360
